Published values pooled from the literature.
Each numbered part is a random draw from the data of one study; scales do not carry over between parts. Positions count from the first letter of the parent shown.

Series 1
Target: CCNB2, cyclin fold, Cln2 fusion (human)
Method: yeast growth competition, sequencing
Medium: yeast
Notes: weak parent motif
Relative to: not given
Direction: higher = stronger binding
Starting sequence: CDC6 docking peptide (human); TLKGRRLVFDNQL; partner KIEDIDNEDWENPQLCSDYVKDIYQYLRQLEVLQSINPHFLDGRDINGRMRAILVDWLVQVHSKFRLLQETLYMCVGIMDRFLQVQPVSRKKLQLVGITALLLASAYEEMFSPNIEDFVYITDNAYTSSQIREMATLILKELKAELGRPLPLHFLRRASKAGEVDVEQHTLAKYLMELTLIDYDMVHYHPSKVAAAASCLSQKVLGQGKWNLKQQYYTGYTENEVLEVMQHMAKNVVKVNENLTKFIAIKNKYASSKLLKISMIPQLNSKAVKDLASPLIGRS
| Change | normalised enrichment score |
| --- | --- |
| TLKGRRLVFDNQP [L13P] | 0.536 |
| TLKGRCLVFDNQL [R6C] | -0.103 |
| TLPGRRLVFDNQL [K3P] | -0.17 |
| TLKNRRLVFDNQL [G4N] | 0.0145 |
| TLKGRRLVFDTQL [N11T] | 0.174 |
| TVKGRRLVFDNQL [L2V] | 0.151 |
| TLKWRRLVFDNQL [G4W] | -0.162 |
| TLKGRRLVFDNQA [L13A] | 0.308 |
| TLKGRLLVFDNQL [R6L] | 0.369 |
| TLWGRRLVFDNQL [K3W] | -0.0391 |
| TLKGRRSVFDNQL [L7S] | 0.95 |
| TLKGRRQVFDNQL [L7Q] | 0.395 |
| TLKGRRAVFDNQL [L7A] | -0.0601 |
| TLKQRRLVFDNQL [G4Q] | 0.278 |
| TLKGRPLVFDNQL [R6P] | -0.921 |
| TLKGYRLVFDNQL [R5Y] | -0.0438 |
| TLKGRRLVFPNQL [D10P] | -0.395 |
| TLKRRRLVFDNQL [G4R] | 0.395 |
| TLKGRRLVFFNQL [D10F] | -0.118 |
| TLKGRRLVFDNRL [Q12R] | 0.424 |
| TLKGDRLVFDNQL [R5D] | -0.699 |

Series 2
Target: CRIPT, C-terminal peptide
Method: DHFR complementation, deep sequencing
Medium: yeast
Notes: single substitutions, model-inferred values
Relative to: wild type
Direction: higher = weaker binding
Starting sequence: ERBIN, PDZ domain 1 (human); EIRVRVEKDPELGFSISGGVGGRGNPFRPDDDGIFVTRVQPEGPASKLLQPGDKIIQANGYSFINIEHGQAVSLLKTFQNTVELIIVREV; partner TKNYKQTSV
| Change | binding free energy change [kcal/mol] |
| --- | --- |
| L74K | -0.00112 |
| E42N | 0.0803 |
| D53M | 0.249 |
| R23H | -0.455 |
| T77G | -0.201 |
| R38H | 0.161 |
| L84A | 0.667 |
| S62G | -0.00666 |
| I2W | 0.203 |
| K8C | 0.945 |
| K47W | 0.284 |
| V36K | 0.819 |
| E67Y | 0.308 |
| R28S | 0.0393 |
| E7T | -0.123 |
| I16F | 0.873 |
| D30C | 0.397 |

Series 3
Target: ABI1, truncated, D143A, DHFR fusion (Arabidopsis thaliana, UniProt P49597)
Method: DHFR PCA, dose-response
Medium: yeast
Notes: Hill fit, mean, not affinity
With: (+)-ABA, dose series
Direction: lower = more sensitive
Starting sequence: PYL1, truncated, DHFR fusion (Arabidopsis thaliana, UniProt Q8VZS8); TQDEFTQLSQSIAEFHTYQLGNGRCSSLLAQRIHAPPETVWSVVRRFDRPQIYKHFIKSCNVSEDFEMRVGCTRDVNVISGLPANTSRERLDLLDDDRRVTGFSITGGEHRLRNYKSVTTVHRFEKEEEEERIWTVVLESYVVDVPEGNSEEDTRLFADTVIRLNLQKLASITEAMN
| Change | ABA EC50 |
| --- | --- |
| E130R | 3.32 µM |
| R123P | 2.13 µM |
| S26G | 4.63 µM |
| R113T | 1.92 µM |
| L29M | 5.35 µM |
| Q10G | 2.22 µM |
| V43I | 4.06 µM |
| E128P | 2.31 µM |
| I12Q | 108 µM |
| T17W | 44.7 µM |
| S11H | 1.39 µM |
| S59N | 3.07 µM |
| Q10N | 4.1 µM |
| D95R | 106 µM |
| I133S | 1.47 µM |
| E67D | 2.78 µM |
| K116E | 48.5 µM |
| I105G | 533 µM |
| D92R | 165 µM |
| Q2G | 3.28 µM |
| I105C | 19.1 µM |

Series 4
Target: RNA binding protein fox-1 homolog 2, RRM domain, GST-SBP tag (RBFOX2, Homo sapiens, UniProt O43251-10, residues 100-194)
Method: RNA Bind-n-Seq
Form: RNA
Medium: in vitro
Tested at: 365 nM
Notes: natural RNA segment, single round, ends assumed
Relative to: no-protein control
Direction: higher = stronger binding
All sequences stand within: GGGAGUUCUACAGUCCGACGAUC … UGGAAUUCUCGGGUGCCAA
Construct (chain): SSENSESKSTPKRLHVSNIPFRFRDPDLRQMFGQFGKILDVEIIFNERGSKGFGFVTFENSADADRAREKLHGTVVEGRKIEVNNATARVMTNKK
| Sequence | RBNS enrichment (R) |
| --- | --- |
| CAAAGAUGAAGUCUCACCUUCCAGUUUGCUUUCUCAUUAGUUUUUUCCAAAGUAAGUUAUUGAAGCUGUGAUUGACAUUUUUCUCAUAAUGAAUCCUCUCAGGACAUUGU | 0.512 |
| CGGGGACACACACGGCUGAACCUUCCCCACGGGACCCCGAGUGGCCCCACCCUGCCUCUUGUCCUGUUGCUAUGUCCUGGUCCUUCUUCCCGCUCUGGGCUUCUCUCAAC | 0.813 |
| UAUGCCCCGAAUUCCUAGUGCAGUUCUCAUUCUCCGCAUGCCCUCAGCUGUGGUCAGGUGACUUCCUGUCCCCUGGCAGCUCUGCUGAGUCCCUGUGUUUGAGCCUCCAG | 0.538 |
| UACCAUGGGGAUCGAUAGGGUGGUUAGCCCUGCGCACUAGGUCCAGCCAAUCUGUGCUCUGGGCCUUGCCUCCCAGGCCACAGUCCUGCUCCCAACUUGUUUGUCCCUAG | 0.366 |
| GAGAAAGGGCUGGAGGAUGCCCCCCACAUACUGCCACUAUUUAUUGUGGGCCCUGGAGGCUCCCUGCAUUGGAGGAAGGGCAGCUCAGCAGCUCAGGACCCUUUCCCUUA | 1.25 |
| AUGUAAAACUUUUAAGGUAUAUCAUUAUAACUGAAGGAGAAGGUGCCCCAAAAUGCAAGAUUUUCCACAAGAUUCCCAGAGACAGGAAAAUCCUCUGGCUGGCUAACUGG | 0.571 |
| AUGGAAGUCCGUCAGGGAACAGGUAGUUCUAAGUGCGUGGCUAAAUGAUUUGGACAAGCUCCUGUGUGUGCUGAGACCUGGCUGGCCAGCUGCUAGAGGGGAAAAACAAU | 0.627 |
| UAUAUAUGUAGAAAUGAAUAAAUAUAUAUUUAAGUACAGUUUUCAUGAGGAAGUUUUAAAAGACCAUGUUCCUAAGCUUCCAAGAAGGUUUUGGAUACUAGAAGUAUUAA | 0.957 |
| GGAUAGUCAAGAAAAGGUUUAACUAGUUUUAGUAUCAGACUUUAAAAUUUCUUAAAGAUUUUGGUAAGAAAUAGAAGUCCACAUACAAGCAUUGAGGAAACUGAAAAAUC | 7.34 |
| CCAUCCCCUGUCUCUGUCUUCCAGCUGUGAAUAUGAAGGGUAUCCUGUAUGAAACAAAAACAAAACCUGAUAUAUGCAAUAUCUGUCUGUCUGUCUGUACCCAUGGGCCU | 0.721 |
| UGGGGAUAGUACUAAUUAUGAAAUUUCCUGCAGGAUCUGUUCUAAGGUUGAAAUUUAGCCCAGCUCUAGGCAUUUUACAAAUUAUUUUAAGAACAGUCACUCUUGAUUGU | 0.418 |
| AUUUCCCCACAGGGACCCACGCACCUCCCUGUAUCUGCGCAGCUUGCUCGUGUGGCUGGAAGCGCUGUCGAUAAGCUUCACGCACUGGCUUGCCAGUUCUUCAGCUCUAG | 0.286 |

Series 5
Target: Interferon regulatory factor 3, full length, phosphomimetic (IRF3, Homo sapiens, UniProt Q14653, residues 1-427, S386D/S396D/S398D/S402D/T404D/S405D)
Sequence of UniProt Q14653 (whole entry, unmodified, looked up): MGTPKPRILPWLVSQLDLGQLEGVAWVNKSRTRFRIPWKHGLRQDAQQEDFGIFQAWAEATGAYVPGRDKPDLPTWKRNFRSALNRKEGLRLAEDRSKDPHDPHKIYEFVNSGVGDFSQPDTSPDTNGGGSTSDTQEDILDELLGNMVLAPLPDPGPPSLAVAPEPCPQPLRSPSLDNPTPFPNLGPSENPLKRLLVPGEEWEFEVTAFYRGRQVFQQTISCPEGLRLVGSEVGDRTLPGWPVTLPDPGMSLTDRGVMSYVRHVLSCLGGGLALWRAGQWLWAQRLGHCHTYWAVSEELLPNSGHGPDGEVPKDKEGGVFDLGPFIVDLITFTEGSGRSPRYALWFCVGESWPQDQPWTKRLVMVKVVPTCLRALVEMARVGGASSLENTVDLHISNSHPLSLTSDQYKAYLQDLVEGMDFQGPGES
Method: protein-binding microarray
Form: double-stranded DNA, one strand shown
Medium: in vitro
Tested at: 2540 nM top
Notes: 60-bp whole probe
With: salmon DNA 0.4 mg/ml
Relative to: random background probes
Direction: higher = stronger binding
All sequences stand within: GCCTAGCAC … GTCTTGATTCGCTTGACGCTGCTG
| Sequence | fitted relative affinity [z-score] |
| --- | --- |
| GAGGGTATCGGGACTGGGGACGTGCTA | 0.211 |
| GACGGTATCGGCCTCGGGACGTGCTAG | 0.846 |
| ATAGATTTCAGTATCGATTAGTGCTAG | 2.72 |
| TTTCCCATGAGTCTCAATATGTGCTAG | 3.56 |
| GACGGACTGGGGACAGGGGACGTGCTA | -0.673 |
| TTAGGATTGCTTCTCCTTTAGTGCTAG | 0.976 |
| TACGATATCAGACTGGAGACGTGCTAG | 0.0596 |
| AACGATTTCAGTTCCGAGACGTGCTAG | 2.71 |
| AAGACTTTCTTTCAAATGAAGTGCTAG | 0.894 |
| TTAGACCTGAGACTGGATTAGTGCTAG | -0.767 |
| GACGGTATCGGTTTCGTGACGTGCTAG | 5.99 |
| GACGATTTCAGCATCGAGACGTGCTAG | 0.586 |
| GACGGACTGGGTATCGGGCCGTGCTAG | -0.552 |
| TCCAATTGTCCTTTCACTTTGTGCTAG | 3.19 |
| GACGGTTTTGGGTATCGGGACGTGCTA | 1.49 |
| TTGAAAAAATATTTATTTCAGTGCTAG | -0.1 |
| TTAGGTATAGACTTTCGGTTAGTGCTA | 1.01 |
| GACGGTCTCCCTTTCCTGACGTGCTAG | 3.85 |
| TCACTTCTGGTCTTCTGACTGTGCTAG | 1.22 |
| GACCATTTCAGTATCGAGACGTGCTAG | 2.62 |
| GACGGACTGCTTCACCTGACGTGCTAG | -0.425 |
| TTAGATCTCAGTCTCGACTAGTGCTAG | 0.528 |
| TTAGGTTTCCTTTTCCTTTGGTGCTAG | 12 |
| GCCGGTTTCGGGTTTCGGGACGTGCTA | 6.07 |
| TAGGGACTCGGGTCTCCCTTGGTGCTA | -1.07 |

Series 6
Target: Histone acetyltransferase KAT6A, winged helix 1, GST fusion (KAT6A, Homo sapiens, UniProt Q92794, residues 1-85)
Method: protein binding microarray
Form: double-stranded DNA, one strand shown
Medium: in vitro
Tested at: not given
Notes: 8-mer, flanks averaged, mean of 2 arrays, mostly near background
Relative to: not given
Direction: higher = stronger binding
Construct (chain): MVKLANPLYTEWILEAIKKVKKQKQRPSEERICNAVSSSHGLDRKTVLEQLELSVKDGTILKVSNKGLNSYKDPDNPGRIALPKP
| Sequence | E-score |
| --- | --- |
| TCGGCTCA | 0.122 |
| GCAGAGGA | -0.26 |
| CCACATGC | -0.0146 |
| CACGAGGA | -0.187 |
| GGCGCCAA | 0.222 |
| CGGCATGC | 0.43 |
| AGGATAAG | -0.175 |
| TAAACCCA | -0.227 |
| CATAGATA | -0.0987 |
| ATATGCTC | -0.0381 |
| GGCTATAC | 0.216 |
| ATCAGCAC | -0.232 |
| GGGGAGAC | -0.0346 |
| CCACGAGC | -0.0136 |
| AGGCGTAT | -0.0896 |
| ATGGCGCC | 0.226 |
| GAGGCTCC | 0.00252 |
| CGCTGTTA | 0.203 |
